Results collected from several papers.
Protocols differ between the studies behind these lines. Several values in a cell are separate wells, animals, samples, runs or records.
PRKAA2: 5'-AMP-activated protein kinase catalytic subunit alpha-2 (PRKAA2, Homo sapiens, UniProt P54646)

Compound | target | assay | setting | how to read | quantity | value
CCn1cc(C(=O)O)c(=O)c2c(N)c(F)c(NC3CCCCC3)cc21 | 5'-AMP-activated protein kinase catalytic subunit alpha-2, with beta1 gamma3 (PRKAA2, Homo sapiens, UniProt P54646) | kinase activity | 0.1 µM, together with: ATP at Km |  | inhibition | 20.4%
C=CC(=O)N1Cc2nc(-c3cc(-c4cc(Cl)cnc4Cl)c(F)cc3F)n(-c3ccncn3)c2C1 | 5'-AMP-activated protein kinase catalytic subunit alpha-2, with beta2 gamma2 (PRKAA2, Homo sapiens, UniProt P54646) | kinome panel | 1 µM |  | inhibition | -1.8%
Cc1cccc(O[C@H]2CCC[C@@H](C(C)CNCc3ccncc3)C2)c1 (relative stereo) | PRKAA2 | cell-free assay | 10 µM |  | inhibition | -1%
CCN1CCN(Cc2ccc(C(=O)Nc3ccc(C)c(NCc4cnc5[nH]ccc5c4OC)c3)cc2C(F)(F)F)CC1 | PRKAA2 | binding, competition with immobilised ligand | 1 µM |  | remaining binding | 97%
CNC(=O)C[C@H](Cc1ccc(C#N)cc1)NC(=O)c1cc(-c2ccc(CN[C@H](C)c3ccc(C)cc3)o2)ccc1Cl | PRKAA2 | enzyme activity, inhibitor | 1 µM |  | activity vs control | 93%
C=CC(=O)N1CCc2ccc(-n3c(=O)ccc4cnc5ccc(-c6cnn(C)c6)cc5c43)cc21 | PRKAA2 | KINOMEscan | 1 µM | reference: DMSO control | remaining binding | 87%
COc1cc(Nc2nccc(-c3cnn4nc(OC)ccc34)n2)cc(C(F)(F)F)c1 | PRKAA2 | binding, competition with immobilised ligand | 1 µM |  | remaining binding | 97%
CN1CCN(Cc2ccc(-c3ccc(CO[C@H]4CCC[C@@H]4NC(=O)c4cc(-c5cnn(C)c5)cnc4N)cc3)cc2)CC1 | 5'-AMP-activated protein kinase catalytic subunit alpha-2, with beta1 gamma1 (PRKAA2, Homo sapiens, UniProt P54646) | kinase activity, inhibitor, SelectScreen | 0.1 µM |  | inhibition | 7% and 0%
COc1ccc(C(=O)/C=C/c2ccccc2-c2c[nH]c3ccc(C#N)cc23)c(O)c1 | PRKAA2 | enzyme activity, inhibitor | 20 µM |  | inhibition | 0%
COc1ccc(NC(=O)Nc2ccc3c(c2)C(=O)N(C(C)CO)CC(C)C(CN(C)Cc2ccc4c(c2)OCO4)O3)cc1 (centres unmarked) | PRKAA2 | kinase activity, KinaseProfiler | 0.03 µM, species human | reference: control | remaining activity | 95%
C=CC(=O)N1CCCC(n2c(=O)c3ncccc3n(Cc3ccc(Oc4ccccc4)cc3)c2=O)C1 (centres unmarked) | PRKAA2 | cell-free assay, competition with immobilised ligand | 1 µM |  | remaining binding | 91%
C=CC(=O)Nc1cccc(-c2cnc3[nH]cc(C(=O)NC(C)(C)C)c3n2)c1 | PRKAA2 | enzyme activity, inhibitor | 0.1 µM |  | inhibition | 52%
Cc1cnc2nc1Nc1cccc(c1)COC/C=C/COCc1cc(ccc1OCCN1CCOCC1)N2 | PRKAA2 | binding, competition with immobilised ligand | 0.1 µM |  | remaining binding | 100%
COc1c(Cl)cccc1Nc1c(-c2ccncc2C#C[C@@]2(C)CCCN2C(=O)/C=C/CN(C)C)[nH]c2c1C(=O)NCC2 | PRKAA2 | binding, competition with immobilised ligand | 3 µM |  | remaining binding | 95%

For quick reference, copied from above:
Compound | target | assay | setting | how to read | quantity | value
COc1c(Cl)cccc1Nc1c(-c2ccncc2C#C[C@@]2(C)CCCN2C(=O)/C=C/CN(C)C)[nH]c2c1C(=O)NCC2 | PRKAA2 | binding, competition with immobilised ligand | 3 µM |  | remaining binding | 95%
